{"data": "Assay results of several laboratories", "U2AF2": "U2AF2 148-342 (Homo sapiens, UniProt P26368)", "B1": "peroxiredoxin-1 (human); sequence looked up; chain SSGNAKIGHPAPNFKATAVMPDGQFKDISLSDYKGKYVVFFFYPLDFTFVCPTEIIAFSDRAEEFKKLNCQVIGASVDSHFCHLAWVNTPKKQGGLGPMNIPLVSDPKRTIAQDYGVLKADEGISFRGLFIIDDKGILRQITVNDLPVGRSVDETLRLVQAFQFTDKHGEVCPAGWKPGSDTIKPDVQKSKEYFSKQK", "B2": "human DDX21; sequence looked up; chain MPGKLRSDAGLESDTAMKKGETLRKQTEEKEKKEKPKSDKTEEIAEEEETVFPKAKQVKKKAEPSEVDMNSPKSKKAKKKEEPSQNDISPKTKSLRKKKEPIEKKVVSSKTKKVTKNEEPSEEEIDAPKPKKMKKEKEMNGETREKSPKLKNGFPHPEPDCNPSEAASEESNSEIEQEIPVEQKEGAFSNFPISEETIKLLKGRGVTFLFPIQAKTFHHVYSGKDLIAQARTGTGKTFSFAIPLIEKLHGELQDRKRGRAPQVLVLAPTRELANQVSKDFSDITKKLSVACFYGGTPYGGQFERMRNGIDILVGTPGRIKDHIQNGKLDLTKLKHVVLDEVDQMLDMGFADQVEEILSVAYKKDSEDNPQTLLFSATCPHWVFNVAKKYMKSTYEQVDLIGKKTQKTAITVEHLAIKCHWTQRAAVIGDVIRVYSGHQGRTIIFCETKKEAQELSQNSAIKQDAQSLHGDIPQKQREITLKGFRNGSFGVLVATNVAARGLDIPEVDLVIQSSPPKDVESYIHRSGRTGRAGRTGVCICFYQHKEEYQLVQVEQKAGIKFKRIGVPSATEIIKASSKDAIRLLDSVPPTAISHFKQSAEKLIEEKGAVEALAAALAHISGATSVDQRSLINSNVGFVTMILQCSIEMPNISYAWKELKEQLGEEIDSKVKGMVFLKGKLGVCFDVPTASVTEIQEKWHDSRRWQLSVATEQPELEGPREGYGGFRGQREGSRGFRGQRDGNRRFRGQREGSRGPRGQRSGGGNKSNRSQNKGQKRSFSKAFGQ", "B3": "human myosin-Ic; sequence looked up; chain MALQVELVPTGEIIRVVHPHRPCKLALGSDGVRVTMESALTARDRVGVQDFVLLENFTSEAAFIENLRRRFRENLIYTYIGPVLVSVNPYRDLQIYSRQHMERYRGVSFYEVPPHLFAVADTVYRALRTERRDQAVMISGESGAGKTEATKRLLQFYAETCPAPERGGAVRDRLLQSNPVLEAFGNAKTLRNDNSSRFGKYMDVQFDFKGAPVGGHILSYLLEKSRVVHQNHGERNFHIFYQLLEGGEEETLRRLGLERNPQSYLYLVKGQCAKVSSINDKSDWKVVRKALTVIDFTEDEVEDLLSIVASVLHLGNIHFAANEESNAQVTTENQLKYLTRLLSVEGSTLREALTHRKIIAKGEELLSPLNLEQAAYARDALAKAVYSRTFTWLVGKINRSLASKDVESPSWRSTTVLGLLDIYGFEVFQHNSFEQFCINYCNEKLQQLFIELTLKSEQEEYEAEGIAWEPVQYFNNKIICDLVEEKFKGIISILDEECLRPGEATDLTFLEKLEDTVKHHPHFLTHKLADQRTRKSLGRGEFRLLHYAGEVTYSVTGFLDKNNDLLFRNLKETMCSSKNPIMSQCFDRSELSDKKRPETVATQFKMSLLQLVEILQSKEPAYVRCIKPNDAKQPGRFDEVLIRHQVKYLGLLENLRVRRAGFAYRRKYEAFLQRYKSLCPETWPTWAGRPQDGVAVLVRHLGYKPEEYKMGRTKIFIRFPKTLFATEDALEVRRQSLATKIQAAWRGFHWRQKFLRVKRSAICIQSWWRGTLGRRKAAKRKWAAQTIRRLIRGFVLRHAPRCPENAFFLDHVRTSFLLNLRRQLPQNVLDTSWPTPPPALREASELLRELCIKNMVWKYCRSISPEWKQQLQQKAVASEIFKGKKDNYPQSVPRLFISTRLGTDEISPRVLQALGSEPIQYAVPVVKYDRKGYKPRSRQLLLTPNAVVIVEDAKVKQRIDYANLTGISVSSLSDSLFVLHVQRADNKQKGDVVLQSDHVIETLTKTALSANRVNSININQGSITFAGGPGRDGTIDFTPGSELLITKAKNGHLAVVAPRLNSR", "B4": "PP4 catalytic subunit (human); sequence looked up; chain AEISDLDRQIEQLRRCELIKESEVKALCAKAREILVEESNVQRVDSPVTVCGDIHGQFYDLKELFRVGGDVPETNYLFMGDFVDRGFYSVETFLLLLALKVRYPDRITLIRGNHESRQITQVYGFYDECLRKYGSVTVWRYCTEIFDYLSLSAIIDGKIFCVHGGLSPSIQTLDQIRTIDRKQEVPHDGPMCDLLWSDPEDTTGWGVSPRGAGYLFGSDVVAQFNAANDIDMICRAHQLVMEGYKWHFNETVLTVWSAPNYCYRCGNVAAILELDEHLQKDFIIFEAAPQETRGIPSKKPVADYFL", "note": "Lines come from different studies, so protocols differ. Numbers after ± are the reported error.", "sequence of UniProt P26368 (whole entry, looked up)": "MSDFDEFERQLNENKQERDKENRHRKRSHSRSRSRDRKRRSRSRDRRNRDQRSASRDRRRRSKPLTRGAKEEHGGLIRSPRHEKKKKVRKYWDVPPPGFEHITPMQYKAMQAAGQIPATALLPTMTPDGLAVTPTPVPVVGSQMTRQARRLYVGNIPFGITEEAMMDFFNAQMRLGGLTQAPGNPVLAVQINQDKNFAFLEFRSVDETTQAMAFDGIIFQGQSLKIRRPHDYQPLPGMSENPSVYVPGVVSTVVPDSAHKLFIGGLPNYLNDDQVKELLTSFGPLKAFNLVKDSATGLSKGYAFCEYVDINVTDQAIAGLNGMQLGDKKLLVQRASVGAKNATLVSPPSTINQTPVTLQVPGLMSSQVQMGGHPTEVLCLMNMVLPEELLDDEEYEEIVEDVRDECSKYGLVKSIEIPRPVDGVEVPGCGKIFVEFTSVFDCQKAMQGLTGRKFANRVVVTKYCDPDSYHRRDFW", "sequence of UniProt Q00535 (whole entry, looked up)": "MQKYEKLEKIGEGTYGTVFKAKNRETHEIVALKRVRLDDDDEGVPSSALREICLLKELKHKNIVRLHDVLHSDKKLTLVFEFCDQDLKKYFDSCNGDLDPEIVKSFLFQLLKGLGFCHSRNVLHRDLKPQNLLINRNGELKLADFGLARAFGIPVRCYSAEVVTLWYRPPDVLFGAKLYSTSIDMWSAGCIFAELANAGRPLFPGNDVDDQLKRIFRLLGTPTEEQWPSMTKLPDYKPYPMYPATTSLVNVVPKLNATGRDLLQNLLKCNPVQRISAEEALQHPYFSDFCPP", "sequence of UniProt P21980 (whole entry, looked up)": "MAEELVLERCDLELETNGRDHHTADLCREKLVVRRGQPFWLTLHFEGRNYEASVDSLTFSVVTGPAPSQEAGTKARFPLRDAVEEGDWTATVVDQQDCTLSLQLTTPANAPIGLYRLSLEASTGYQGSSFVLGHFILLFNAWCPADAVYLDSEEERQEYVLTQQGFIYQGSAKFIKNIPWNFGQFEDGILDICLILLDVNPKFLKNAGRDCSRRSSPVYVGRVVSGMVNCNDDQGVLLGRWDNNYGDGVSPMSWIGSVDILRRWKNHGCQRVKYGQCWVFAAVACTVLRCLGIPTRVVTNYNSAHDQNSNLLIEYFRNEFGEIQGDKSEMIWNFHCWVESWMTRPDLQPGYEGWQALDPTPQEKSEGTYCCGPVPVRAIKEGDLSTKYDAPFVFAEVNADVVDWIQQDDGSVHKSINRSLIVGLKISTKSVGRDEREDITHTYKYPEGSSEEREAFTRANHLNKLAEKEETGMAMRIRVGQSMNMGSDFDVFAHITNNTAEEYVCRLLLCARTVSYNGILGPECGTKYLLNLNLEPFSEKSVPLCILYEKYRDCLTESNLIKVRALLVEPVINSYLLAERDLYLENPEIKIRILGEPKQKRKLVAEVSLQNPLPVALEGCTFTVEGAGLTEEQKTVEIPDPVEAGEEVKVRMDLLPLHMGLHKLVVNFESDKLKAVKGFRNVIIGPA"}
{"Substance": "PFVYLIRFHRFHRFHGGGSSSQLSRP", "target or system": "C57BL/6J mouse bone marrow-derived macrophages", "test": "siRNA delivery, flow cytometry", "system": "peptide", "setting": "dose not given, 6 h, peptide-siRNA nanoparticles, with: Cy5-siRNA", "endpoint": "transfection efficiency", "value": "92%"}
{"Substance": "UUUUUAUAG (ssRNA)", "target or system": "U2AF2", "test": "sequencing of bound RNA", "system": "RNA", "setting": "motif only", "endpoint": "Kd", "value": "9.28 µM"}
{"Substance": "B1 (peroxiredoxin-1)", "target or system": "CYB5R4 knockout human cells", "test": "PP6 interaction, 3xFLAG-PP6C IP-MS", "setting": "concentration not given", "how to read": "relative to: CYB5R4 KO over parental", "endpoint": "log2 fold change", "value": 0.2}
{"Substance": "MTVCNASQRQAHAQATAVSL", "target or system": "H1155 lung large cell carcinoma", "test": "phage binding output/input", "system": "peptide", "how to read": "relative to: control phage", "endpoint": "selectivity ratio", "value": "2.2 ± 1.4"}
{"Substance": "B2 (human DDX21)", "target or system": "CYB5R4 knockout human cells", "test": "PP4 interaction, 3xFLAG-PP4C IP-MS", "setting": "concentration not given", "how to read": "relative to: CYB5R4 KO over parental", "endpoint": "log2 fold change", "value": -0.72}
{"Substance": "GTDPIPIGM", "target or system": "Jurkat expressing engineered TCR", "test": "NFAT-eGFP reporter, fluorescence microscopy", "system": "peptide", "setting": "concentration not given, HLA-A*01:01 on EL4 cells", "endpoint": "GFP-positive cells", "value": "0.4%"}
{"Substance": "ACAUUCUUC (ssRNA)", "target or system": "U2AF2", "test": "sequencing of bound RNA", "system": "RNA", "setting": "motif only", "endpoint": "Kd", "value": "6.16 µM"}
{"Substance": "ESDPIVAQY", "target or system": "Jurkat NFAT-eGFP expressing engineered TCR", "test": "NFAT reporter gene", "system": "peptide", "setting": "concentration not given, HLA-A*01:01 presentation", "endpoint": "GFP-positive cells", "value": "4.11%"}
{"Substance": "KEAFWDRCLSVINIMSSKMLQINA", "target or system": "Cyclin-dependent kinase 5, with p25 (CDK5, Homo sapiens, UniProt Q00535)", "test": "phosphotransferase activity, radiometric", "system": "peptide", "setting": "concentration not given, 10% DMSO, with: histone substrate", "how to read": "relative to: p5-WT peptide", "endpoint": "activity change", "value": "18%"}
{"Substance": "Pam2CSK4", "target or system": "BV-2", "test": "Western blot, item: NLRP3", "setting": "concentration not given", "how to read": "relative to: control", "endpoint": "relative protein level", "value": 2.16}
{"Substance": "ETDPIGHEF", "target or system": "Jurkat expressing engineered TCR", "test": "NFAT-eGFP reporter, fluorescence microscopy", "system": "peptide", "setting": "concentration not given, HLA-A*01:01 on EL4 cells", "endpoint": "GFP-positive cells", "value": "6%"}
{"Substance": "B3 (human myosin-Ic)", "target or system": "CYB5R4 knockout human cells", "test": "PP6 interaction, 3xFLAG-PP6C IP-MS", "setting": "concentration not given", "how to read": "relative to: CYB5R4 KO over parental", "endpoint": "log2 fold change", "value": -0.55}
{"Substance": "Peginesatide", "target or system": "UT7/EPO", "test": "tyrosine phosphorylation, LC-MS/MS phosphoproteomics, GluC, item: STAT5B tyrosine 699", "setting": "10 nM, 15 min, with: 10 U/mL EPO", "how to read": "relative to: vehicle", "endpoint": "phosphorylation level", "value": "75.2 fold"}
{"Substance": "GGGAGCAGGAGAGAGGUCAGAUGUGUAGGGAAUGACCGGGUUCCUGGUGCCCGCCUAUGCGUGCUAGUGUGA (ssRNA; 2'-fluoro pyrimidines)", "target or system": "TGM2 2-687 (Homo sapiens, UniProt P21980)", "test": "SPR", "system": "RNA", "setting": "with: MgCl2 5 mM", "how to read": "higher = more binding", "endpoint": "relative binding", "value": "277 RU"}
{"Substance": "epoetin alfa", "target or system": "UT7/EPO", "test": "microarray, item: KLF6 (probe 208960_s_at)", "setting": "5 U/mL, 90 min, with: SCF 10 nM", "how to read": "relative to: vehicle", "endpoint": "mRNA level", "value": "6.9 fold"}
{"Substance": "ESDPINESY", "target or system": "Jurkat expressing engineered TCR", "test": "NFAT-eGFP reporter, fluorescence microscopy", "system": "peptide", "setting": "concentration not given, HLA-A*01:01 on EL4 cells", "endpoint": "GFP-positive cells", "value": "10.7%"}
{"Substance": "PSMC1 (human)", "target or system": "CYB5R4 knockout human cells", "test": "PP6 interaction, 3xFLAG-PP6C IP-MS", "setting": "concentration not given", "how to read": "relative to: CYB5R4 KO over parental", "endpoint": "log2 fold change", "value": 2.06}
{"Substance": "GTDYVAGGM", "target or system": "Jurkat expressing engineered TCR", "test": "NFAT-eGFP reporter, fluorescence microscopy", "system": "peptide", "setting": "concentration not given, HLA-A*01:01 on EL4 cells", "endpoint": "GFP-positive cells", "value": "0.379%"}
{"Substance": "B4 (PP4 catalytic subunit)", "target or system": "CYB5R4 knockout human cells", "test": "PP4 interaction, 3xFLAG-PP4C IP-MS", "setting": "concentration not given", "how to read": "relative to: CYB5R4 KO over parental", "endpoint": "log2 fold change", "value": 0}
{"note": "A few entries again:"}
{"Substance": "GGGAGCAGGAGAGAGGUCAGAUGUGUAGGGAAUGACCGGGUUCCUGGUGCCCGCCUAUGCGUGCUAGUGUGA (ssRNA; 2'-fluoro pyrimidines)", "target or system": "TGM2 2-687 (Homo sapiens, UniProt P21980)", "test": "SPR", "system": "RNA", "setting": "with: MgCl2 5 mM", "how to read": "higher = more binding", "endpoint": "relative binding", "value": "277 RU"}
{"Substance": "epoetin alfa", "target or system": "UT7/EPO", "test": "microarray, item: KLF6 (probe 208960_s_at)", "setting": "5 U/mL, 90 min, with: SCF 10 nM", "how to read": "relative to: vehicle", "endpoint": "mRNA level", "value": "6.9 fold"}
{"Substance": "ESDPINESY", "target or system": "Jurkat expressing engineered TCR", "test": "NFAT-eGFP reporter, fluorescence microscopy", "system": "peptide", "setting": "concentration not given, HLA-A*01:01 on EL4 cells", "endpoint": "GFP-positive cells", "value": "10.7%"}
